Results pooled from the literature.
Compare with care: the assays were run in different laboratories. ± marks the error that the study gave.

Structure (SMILES) | test | test system | conditions | scale | endpoint | result
CCCC[C@H](NC(=O)CCCCCCCNC(=O)c1ccc(NN)nc1)C(=O)N[C@H]1CC(=O)NCCCC[C@@H](C(N)=O)NC(=O)[C@H](Cc2c[nH]c3ccccc23)NC(=O)[C@H](CCCNC(=N)N)NC(=O)[C@@H](Cc2ccccc2)NC(=O)[C@H](Cc2c[nH]cn2)NC1=O [technetium-99m labelled] |  | C57 mouse, B16/F1 melanoma, stomach | 2 h, together with: NDP-MSH 10 µg (6.07 nmol) co-injected |  | tissue uptake | 0.56 ± 0.1 %ID/g
N=C(N)NCCC[C@@H]1NC(=O)[C@H](CCCCNC(=O)CCOCCOCCOCCOCCNC(=O)CN2CCN(CC(=O)O)CCN(CC(=O)O)CCN(CC(=O)O)CC2)NC(=O)[C@@H](Cc2ccccc2)NC(=O)[C@H](CC(=O)O)NC(=O)CNC1=O [indium-111 labelled] |  | athymic nude mice, female, U-87 MG glioma xenograft, tumour and lungs | intravenous, 4 h | reference: tumour over lungs | tumour to tissue ratio | 4.36 ± 0.68
C[C@H](NC(=O)CNC(=O)[C@H](CCC(=O)O)NC(=O)[C@H](CCC(=O)O)NC(=O)[C@H](CC(=O)O)NC(=O)[C@@H]1CCCN1C(=O)[C@H](Cc1ccccc1)NC(=O)[C@H](CS)NC(=O)[C@H](Cc1ccc(O)cc1)NC(=O)CCCNC(=O)CNC(=O)CNC(=O)[C@@H](C)NC(=O)CN)C(=O)N[C@@H](CS)C(=O)N[C@@H](Cc1ccc(O)cc1)C(N)=O [technetium-99m labelled] | HPLC | human serum | 1 h, 37 °C |  | radiochemical purity | 97.14 ± 0.45%
CCCC[C@H](NC(=O)CNC(=O)CNC(=O)CNC(=O)c1ccc(NN)nc1)C(=O)N[C@H]1CC(=O)NCCCC[C@@H](C(N)=O)NC(=O)[C@H](Cc2c[nH]c3ccccc23)NC(=O)[C@H](CCCNC(=N)N)NC(=O)[C@@H](Cc2ccccc2)NC(=O)[C@H](Cc2c[nH]cn2)NC1=O [technetium-99m labelled] |  | C57 mouse, B16/F1 melanoma, stomach | intravenous, 2 h |  | uptake | 0.43 ± 0.27 %ID/g
CSCC[C@H](NC(=O)[C@H](CC(C)C)NC(=O)[C@H](Cc1c[nH]cn1)NC(=O)CNC(=O)[C@@H](NC(=O)[C@H](C)NC(=O)[C@H](Cc1c[nH]c2ccccc12)NC(=O)[C@H](CCC(N)=O)NC(=O)CCCCCNC(=O)CNC(=O)CNC(=O)CNC(=O)CSC(C)=O)C(C)C)C(N)=O [technetium-99m labelled] |  | Swiss mouse, heart | intravenous, 18.5 MBq, 5 min |  | tissue uptake | 0.61 ± 0.2 %ID/g
CCCC[C@H](NC(=O)CNC(=O)CNC(=O)c1ccc(NN)nc1)C(=O)N[C@H]1CC(=O)NCCCC[C@@H](C(N)=O)NC(=O)[C@H](Cc2c[nH]c3ccccc23)NC(=O)[C@H](CCCNC(=N)N)NC(=O)[C@@H](Cc2ccccc2)NC(=O)[C@H](Cc2c[nH]cn2)NC1=O [technetium-99m labelled] |  | C57 mouse, B16/F1 melanoma-bearing | intravenous, 4 h | reference: tumour over skin | tissue uptake ratio | 40.1
N=C(N)NCCC[C@@H]1NC(=O)[C@H](CCCCNC(=O)CNC(=O)CNC(=O)CNC(=O)CC[C@H](NC(=O)CCOCCOCCOCCOCCNC(=O)CC[C@H](NC(=O)CN2CCN(CC(=O)O)CCN(CC(=O)O)CCN(CC(=O)O)CC2)C(=O)NCCOCCOCCOCCOCCC(=O)N[C@@H](CCC(=O)NCC(=O)NCC(=O)NCC(=O)NCCCC[C@@H]2NC(=O)[C@@H](Cc3ccccc3)NC(=O)[C@H](CC(=O)O)NC(=O)CNC(=O)[C@H](CCCNC(=N)N)NC2=O)C(=O)NCC(=O)NCC(=O)NCC(=O)NCCCC[C@@H]2NC(=O)[C@@H](Cc3ccccc3)NC(=O)[C@H](CC(=O)O)NC(=O)CNC(=O)[C@H](CCCNC(=N)N)NC2=O)C(=O)NCC(=O)NCC(=O)NCC(=O)NCCCC[C@@H]2NC(=O)[C@@H](Cc3ccccc3)NC(=O)[C@H](CC(=O)O)NC(=O)CNC(=O)[C@H](CCCNC(=N)N)NC2=O)NC(=O)[C@@H](Cc2ccccc2)NC(=O)[C@H](CC(=O)O)NC(=O)CNC1=O [indium-111 labelled] |  | female athymic nude mice, kidney | intravenous, 3 µCi, 72 h, U-87 MG glioma xenograft |  | tissue uptake | 0.85 ± 0.09 %ID/g
CC(=O)O[C@H]1C(=O)[C@@]2(C)[C@H]([C@H](OC(=O)c3ccccc3)[C@]3(O)C[C@H](OC(=O)[C@H](OC(=O)CCC(=O)NCCCC[C@@H](NC(=O)[C@@H](Cc4ccccc4)NC(=O)[C@@H](Cc4ccccc4)NC(=O)Cc4ccc5ccccc5c4)C(=O)N[C@H](Cc4ccc(O)cc4)C(=O)O)[C@@H](NC(=O)c4ccccc4)c4ccccc4)C(C)=C1C3(C)C)[C@]1(OC(C)=O)CO[C@@H]1C[C@@H]2O | TEM | hydrogel | pH 7.4, together with: alkaline phosphatase 1.0 U/mL |  | nanofiber width | 9 ± 2 nm
N=C(N)NCCC[C@@H]1NC(=O)[C@H](CCCCNC(=O)CCOCCOCCOCCOCCNC(=O)CC[C@H](NC(=O)CCOCCOCCOCCOCCNC(=O)CC[C@H](NC(=O)CN2CCN(CC(=O)O)CCN(CC(=O)O)CCN(CC(=O)O)CC2)C(=O)NCCOCCOCCOCCOCCC(=O)N[C@@H](CCC(=O)NCCOCCOCCOCCOCCC(=O)NCCCC[C@@H]2NC(=O)[C@@H](Cc3ccccc3)NC(=O)[C@H](CC(=O)O)NC(=O)CNC(=O)[C@H](CCCNC(=N)N)NC2=O)C(=O)NCCOCCOCCOCCOCCC(=O)NCCCC[C@@H]2NC(=O)[C@@H](Cc3ccccc3)NC(=O)[C@H](CC(=O)O)NC(=O)CNC(=O)[C@H](CCCNC(=N)N)NC2=O)C(=O)NCCOCCOCCOCCOCCC(=O)NCCCC[C@@H]2NC(=O)[C@@H](Cc3ccccc3)NC(=O)[C@H](CC(=O)O)NC(=O)CNC(=O)[C@H](CCCNC(=N)N)NC2=O)NC(=O)[C@@H](Cc2ccccc2)NC(=O)[C@H](CC(=O)O)NC(=O)CNC1=O [indium-111 labelled] |  | athymic nude mice, female, U-87 MG glioma xenograft, tumour and liver | intravenous, 4 h | reference: tumour over liver | tumour to tissue ratio | 3.04 ± 1.03
CC(C)C[C@H](NC(=O)[C@H](Cc1ccc(O)cc1)NC(=O)[C@@H](CCCNC(=N)N)NC(=O)[C@@H](CO)NC(=O)[C@H](Cc1ccccc1)NC(=O)[C@H](CC1CCCCC1)NC(=O)[C@H](CC(=O)O)NC(=O)[C@H](CCC(=O)O)NC(=O)[C@H](CCC(=O)O)NC(=O)[C@H](CCC(=O)O)NC(=O)[C@H](CCC(=O)O)NC(=O)CCc1ccc(N(c2ccc(CCC(=O)O)cc2)c2ccc(-c3c4c(c(-c5ccc(N(c6ccc(CCC(=O)O)cc6)c6ccc(CCC(=O)O)cc6)cc5)c5nsnc35)N=S=N4)cc2)cc1)C(=O)N[C@@H](Cc1c[nH]c2ccccc12)C(=O)N[C@@H](CO)C(N)=O |  | nude mice, ventricle | unblocked, unit not given | reference: liver | ex vivo signal intensity | 0.1

A few entries again:
Structure (SMILES) | test | test system | conditions | scale | endpoint | result
C[C@H](NC(=O)CNC(=O)[C@H](CCC(=O)O)NC(=O)[C@H](CCC(=O)O)NC(=O)[C@H](CC(=O)O)NC(=O)[C@@H]1CCCN1C(=O)[C@H](Cc1ccccc1)NC(=O)[C@H](CS)NC(=O)[C@H](Cc1ccc(O)cc1)NC(=O)CCCNC(=O)CNC(=O)CNC(=O)[C@@H](C)NC(=O)CN)C(=O)N[C@@H](CS)C(=O)N[C@@H](Cc1ccc(O)cc1)C(N)=O [technetium-99m labelled] | HPLC | human serum | 1 h, 37 °C |  | radiochemical purity | 97.14 ± 0.45%
